Published values from different studies.
Protocols differ between the studies behind these lines. “And” joins repeats or separate records; there may be more than shown. ± gives the spread as reported.

| Compound | target or system | test | system | setting | scale | measurement | value |
| --- | --- | --- | --- | --- | --- | --- | --- |
| c1ccc2[nH]ccc2c1 | HCT-8 | RNA-seq, refers to: CHST3 |  | concentration not given |  | mRNA level, LS mean | 139 counts per million |
| Fc1ccc(CNc2ccc3nc(COCc4ccccc4)[nH]c3c2)cc1 | sample A patient iPSC NPCs | cell protection, MTS |  | up to 100 µM, 24 h |  | Emax | 26% |
| CC(C)NCC(O)c1ccc(O)c(O)c1 (centres unmarked) | mouse ventricular cardiomyocytes |  |  | dose not given, 0.099 s |  | sarcomere length | 1.71 µm |
| CN1C(=O)C2(NN=C(c3ccccc3)S2)c2ccccc21 (centres unmarked) | TNBC cells | MTT |  | 10 µM, 24 h |  | viability loss | 50 to 60% |
| CCN[C@@H]1C[C@H](N)[C@@H](O[C@H]2OC(CN)=CC[C@H]2N)[C@H](O)[C@H]1O[C@H]1OC[C@](C)(O)[C@H](NC)[C@H]1O.CCN[C@@H]1C[C@H](N)[C@@H](O[C@H]2OC(CN)=CC[C@H]2N)[C@H](O)[C@H]1O[C@H]1OC[C@](C)(O)[C@H](NC)[C@H]1O.O=S(=O)(O)O.O=S(=O)(O)O.O=S(=O)(O)O.O=S(=O)(O)O.O=S(=O)(O)O | HepaRG | ROS-Glo luminescence |  |  |  | maximal ROS response | -91.4 ± 28.1% |
| CSc1cc(Oc2ccnc3[nH]c(=O)cnc23)ccc1NC(=O)Nc1cc(C(C)(C)C)nn1-c1ccccc1 | patient-derived cells | RPPA, refers to: phosphorylated Tuberin |  | 1 µM, 4 h, mean of three patients | relative to: DMSO | phospho ratio | 1.05 |
| Cn1cc(-c2ccc(-c3cncc(Cl)c3N3CCC4(CCNC4=O)CC3)cc2)cn1 | COLO 205 | gene expression, microarray, refers to: CAPG mRNA |  | concentration not given, 2 h | relative to: untreated cells | log2 fold change | 2.09 |
| Cn1cc(-n2cnc3c(NCc4nc5cc(Cl)c(Cl)cc5[nH]4)nc(N4CCOCC4)nc32)cn1 | MDA-MB-231 | qRT-PCR, refers to: FANCD2 |  | 0.05 µM, 6 h, unit not given | relative to: DMSO | mRNA level | 0.952 and 0.824 and 0.905 |
| O=c1[nH]nc(OCCCc2ccc(Cl)cc2)c(NCc2cccnc2)c1Br | HEK293T | RNA-seq, refers to: HSPH1 mRNA |  | 10 µM, 6 h | relative to: vehicle | log2 fold change | -0.181 |
| CCCN1CCN(c2ccc3nc(-c4ccc5nc(-c6cc(OC)ccc6OC)[nH]c5c4)[nH]c3c2)CC1 | CAKI-1 | SRB |  | 10 µM, 48 h |  | growth percent | 106% |
| O=C(O)c1cc(=O)[nH]c(=O)n1[C@@H]1O[C@H](COP(=O)(O)O)[C@@H](O)[C@H]1O |  | binding, equilibrium dialysis LC-MS |  | 5 µM, thermostabilized A2AR-BRIL construct | relative to: no-protein control, direction not given | z-scored log2 fold change | 0.114 |
| O=C(Nc1c[nH]nc1-c1nc2ccc(CN3CCOCC3)cc2[nH]1)NC1CC1 | ARPE-19 HiBiT fibulin-3 | HiBiT luminescence |  | 1.66 µM |  | fibulin-3 level | -29.8% |
| C=CC(=O)N1CCC([C@@H]2CCNc3c(C(N)=O)c(-c4ccc(Oc5ccccc5)cc4)nn32)CC1 | Ramos | calcium flux, FLIPR |  | 1 h preincubation |  | IC50 | 0.00916 µM |
| Cc1cccc(-c2[nH]c(CNc3ccccc3F)nc2-c2ccc3ncnn3c2)n1 | MM1.S | XTT |  | 1.6 µM | relative to: untreated | viability | 30% |
| CC#CC(=O)N1CCC[C@H]1c1nc(-c2ccc(C(=O)Nc3ccccn3)cc2)c2c(N)nccn12 | TMD8 RAC2 knockout | calcium flux, FLIPR |  | 4 h preincubation |  | IC50 | 0.0079 µM |
| COc1cnc2cccc(N3CCc4c(cc(Cn5ccnc5C)cc4-c4cn(C)nc4C(F)(F)F)C3=O)c2c1 | SKMEL31 | cell growth |  | 120 h |  | EC50 | > 30 µM |
| CC1(C)CCC(CN2CCN(c3ccc(C(=O)NS(=O)(=O)c4ccc(NCC5CCOCC5)c([N+](=O)[O-])c4)c(Oc4cnc5[nH]ccc5c4)c3)CC2)=C(c2ccc(Cl)cc2)C1 | THP-1 | annexin V/PI flow cytometry, refers to: annexin V+/PI+ |  | 3.2 µM, 24 h |  | late apoptotic cells | 4.3% |
| CCn1cc(-c2cc(Cn3ccoc3=N)cc3c2CCN([C@@H](C)c2cc(OC)ccn2)C3=O)c(C(F)(F)F)n1 | MCAS | cell growth |  | 120 h |  | EC50 | 10.5 µM |
| CC1(C)CNc2cc(NC(=O)c3cccnc3NCc3ccncc3)ccc21 | iCell Cardiomyocytes (hiPSC-derived) | CellTiter-Glo |  | concentration not given, 24 h | relative to: control | ATP level | 105% |
| CCCN1CCN(c2ccc3[nH]c(-c4ccc5[nH]c(-c6cc(OC)c(OC)c(OC)c6)nc5c4)nc3c2)CC1 | BT-549 | SRB |  | 10 µM, 48 h |  | growth percent | 83.2% |
| CCCCc1nc(Cl)c(CO)n1Cc1ccc(-c2ccccc2-c2nn[nH]n2)cc1 | human PBMC | RNA-seq, refers to: CSF3 mRNA |  | 10 µg/mL, 24 h | relative to: untreated control | log2 fold change | 4.1 |
| O=C(O)c1ccc(-c2c[nH]c3ncc(-c4ccccc4)cc23)cc1C1CCCC1 | SK-OV-3 | ATP | 2D monolayer culture | 1 µM, 4 days | relative to: untreated | relative cell number | 115% |

| Compound | target or system | test | system | setting | scale | measurement | value |
| --- | --- | --- | --- | --- | --- | --- | --- |
| O=C(NOC[C@H](O)CO)c1ccc(F)c(F)c1Nc1ccc(I)cc1F | A549 |  |  | 0.625 µM, 72 h |  | viability | 44.6% |
| O=C(NOCC1CC1)c1ccc(F)c(F)c1Nc1ccc(I)cc1Cl | iCell Cardiomyocytes (hiPSC-derived) | CellTiter-Glo |  | concentration not given, 24 h | relative to: control | ATP level | 96.4% |
| C[C@H]1Oc2cc(cnc2N)-c2c(nn(C)c2C#N)CN(C)C(=O)c2ccc(F)cc21 | NB1 (ALK amplification, exon 2-3 deletion) | cell viability |  |  |  | Emax | 80.2% |
| COc1cc(/C=C/C(=O)N2CCC=CC2=O)cc(OC)c1OC | MDA-MB-468 | quantitative RT-PCR, refers to: NDUFB4 |  | 30 µM, 8 h | relative to: untreated cells | mRNA level | 79.5 ± 8.9% |
| Cc1ccc2nc(NCCN)c3ncc(C)n3c2c1 | iCell Cardiomyocytes (hiPSC-derived) | xCELLigence Cardio impedance |  | concentration not given, 2 h | relative to: control | beat rate | 90.7% |
| COC(=O)c1cc(C(C)=NNc2nc(-c3ccc4c(c3)OCCCO4)cs2)ccc1O | T47D | flow cytometry |  | 10 µM, 72 h |  | cells in S phase | 12.7 ± 1.18% |
| CN1CCN(S(=O)(=O)c2ccc(-c3cnc(N)c(C(=O)Nc4cccnc4)n3)cc2)CC1 | ARPE-19 HiBiT fibulin-3 | HiBiT luminescence |  | 5 µM |  | fibulin-3 level | -46.4% |
| CCn1cc(-c2cc(Cn3ccnc3)cc3c2CCN([C@H](c2cc(OC)ccn2)C2CC2)C3=O)c(C(F)(F)F)n1 | CFPAC-1 | cell growth, inhibitor |  | 120 h |  | EC50 | 14 µM |
| c1ccc2c(Cc3ccc4cnn(C5COC5)c4c3)nccc2c1 | A549 | mitochondrial oxygen consumption, Seahorse XF96 |  | 10 µM |  | inhibition | 0% |
| CS(=O)(=O)CCNCc1ccc(-c2ccc3ncnc(Nc4ccc(OCc5cccc(F)c5)c(Cl)c4)c3c2)o1 | iCell Cardiomyocytes (hiPSC-derived) | xCELLigence Cardio impedance |  | concentration not given, 2 h | relative to: control | beat rate | 98.5% |
| C[C@@H]1CN(C(=O)c2ccc(NC(=O)c3cc(O[C@H](C)c4c(Cl)ccc(F)c4Cl)c(N)nn3)cc2)C[C@H](C)N1 | Ba/F3 EML4-ALK variant 1 E1210K | cell viability |  |  |  | Emax | 99.8% |
| COc1ccc2c(N(C)c3ccc(/C(C)=N/OCCN)cc3)c3c(Cl)coc3nc2c1 | LNCaP C-81 |  |  | 1 µM |  | soft agar colony reduction | 50% |
| COc1cc(N2CCC(N3CCN(C)CC3)CC2)ccc1Nc1ncc(Cl)c(Nc2ccccc2P(C)(C)=O)n1 | Ba/F3 EML4-ALK variant 1 E1210K | cell viability |  |  |  | IC50 | 0.191 µM |
| Cn1cc(Nc2nccc(-c3ccc4c(c3)CN(C3COC3)CC[C@H]4NC(=O)c3cn(C(C)(C)C)nn3)n2)cn1 | mouse splenic B cells | refers to: BAG2 signalling pathway |  | 30 mg/kg, IgD-activated in vivo | relative to: vehicle, direction not given | pathway activation z-score | -0.632 |
| C=CC(=O)Nc1cccc(Oc2nc(Nc3ccc(N4CCN(C)CC4)cc3)nc3ccoc23)c1 | TMD8 RAC2 knockout | calcium flux, FLIPR |  | 1 h preincubation |  | IC50 | 0.06 µM |
| Cc1cn(-c2cc(NC(=O)c3ccc(C)c(Nc4nccc(-c5cccnc5)n4)c3)cc(C(F)(F)F)c2)cn1 | iCell Cardiomyocytes (hiPSC-derived) | xCELLigence Cardio impedance |  | concentration not given, 2 h | relative to: control | beat amplitude | 107% |
| COc1ccc(C(=O)c2ncnc3cc(OC)c(OC)cc23)cc1 | A549 | mitochondrial oxygen consumption, Seahorse XF96 |  | 10 µM |  | inhibition | 11% |
| Cc1ccc(NC(=O)c2ccc(CN3CCN(C)CC3)cc2)cc1Nc1nccc(-c2cccnc2)n1 | iCell Cardiomyocytes (hiPSC-derived) | CellTiter-Glo |  | concentration not given, 24 h | relative to: control | ATP level | 94.7% |
| C=CC(=O)N1CCC[C@@H](n2nc(-c3ccc(Oc4ccccc4)cc3)c3c(N)ncnc32)C1 | TMD8 RAC2 knockout | calcium flux, FLIPR |  | 1 h preincubation |  | IC50 | 0.0061 µM |
| COc1cc2c(cc1O)C(Cc1ccc(O)c(-c3c(O)c(OC)cc4c3C(Cc3ccc(O)cc3)N(C)CC4)c1)N(C)CC2 (centres unmarked) | 3T3-L1 | adipocyte lipid accumulation, Nile Red staining |  | 50 µM |  | inhibition | 3.1 ± 0.6% |
| CC(O)CC(=O)SCCNC(=O)CCNC(=O)[C@H](O)C(C)(C)COP(=O)(O)OP(=O)(O)OC[C@H]1O[C@@H](n2cnc3c(N)ncnc32)[C@H](O)[C@@H]1OP(=O)(O)O (some centres unmarked) |  | binding, equilibrium dialysis LC-MS |  | 5 µM, thermostabilized A2AR-BRIL construct | relative to: no-protein control, direction not given | z-scored log2 fold change | -0.576 |
| O=C(NO)c1ccc(Cn2cnc3c(Nc4cccc([N+](=O)[O-])c4)ncnc32)cc1 | HEL venetoclax-resistant cells | cell viability, MTT |  | 48 h, together with: venetoclax |  | sensitizing concentration | 2.5 µM |

Some of these lines once more:
| Compound | target or system | test | system | setting | scale | measurement | value |
| --- | --- | --- | --- | --- | --- | --- | --- |
| C=CC(=O)N1CCC[C@@H](n2nc(-c3ccc(Oc4ccccc4)cc3)c3c(N)ncnc32)C1 | TMD8 RAC2 knockout | calcium flux, FLIPR |  | 1 h preincubation |  | IC50 | 0.0061 µM |
| CCCN1CCN(c2ccc3[nH]c(-c4ccc5[nH]c(-c6cc(OC)c(OC)c(OC)c6)nc5c4)nc3c2)CC1 | BT-549 | SRB |  | 10 µM, 48 h |  | growth percent | 83.2% |
| Cc1cccc(-c2[nH]c(CNc3ccccc3F)nc2-c2ccc3ncnn3c2)n1 | MM1.S | XTT |  | 1.6 µM | relative to: untreated | viability | 30% |
| CN1CCN(S(=O)(=O)c2ccc(-c3cnc(N)c(C(=O)Nc4cccnc4)n3)cc2)CC1 | ARPE-19 HiBiT fibulin-3 | HiBiT luminescence |  | 5 µM |  | fibulin-3 level | -46.4% |
| CCCN1CCN(c2ccc3nc(-c4ccc5nc(-c6cc(OC)ccc6OC)[nH]c5c4)[nH]c3c2)CC1 | CAKI-1 | SRB |  | 10 µM, 48 h |  | growth percent | 106% |
| CN1C(=O)C2(NN=C(c3ccccc3)S2)c2ccccc21 (centres unmarked) | TNBC cells | MTT |  | 10 µM, 24 h |  | viability loss | 50 to 60% |
| CC(O)CC(=O)SCCNC(=O)CCNC(=O)[C@H](O)C(C)(C)COP(=O)(O)OP(=O)(O)OC[C@H]1O[C@@H](n2cnc3c(N)ncnc32)[C@H](O)[C@@H]1OP(=O)(O)O (some centres unmarked) |  | binding, equilibrium dialysis LC-MS |  | 5 µM, thermostabilized A2AR-BRIL construct | relative to: no-protein control, direction not given | z-scored log2 fold change | -0.576 |
